Measured values of several laboratories.
Protocols differ between the studies behind these lines. ± marks the error that the study gave. Values after ≈ are worked out from the molar mass of the structure shown.

SMILES | organism | test | system | setting | how to read | endpoint | result
NC(=NO)NCCC[C@H](N)C(=O)O | Schistosoma mansoni |  | schistosomula | 100 µM, 72 h, host cell coculture |  | viability | no effect
N[C@H]1C[C@@H]1c1ccc(-c2cccc(O)c2)cc1 | herpes simplex virus 1 | titration on Vero cells | HeLa | 50 µM, 24 h post-infection | reference: DMSO | viral yield reduction | ~100 fold
COc1ccc(S(=O)(=O)NCc2c[nH]nc2-c2cccs2)cc1 | Plasmodium vivax | reinvasion | 3, human, human red blood cells | 3× EC50, 20 h |  | parasitemia | 0%
O=c1c(O)cccc(S(=O)(=O)c2cccc3ccccc23)c1O | Hepatitis B virus | viral replication, inhibitor | HepDES19 |  |  | EC50 | 5900 nM
CC(C)C[C@@H]1NC(=O)[C@H](CCCCN)NC(=O)[C@H](C(C)C)NC(=O)[C@@H]2CCCN2C(=O)[C@@H](Cc2ccc(O)cc2)NC(=O)[C@H](CC(C)C)NC(=O)[C@H](CCCCN)NC(=O)[C@H](C(C)C)NC(=O)[C@H](CCCCN)NC(=O)[C@H](CC(C)C)NC(=O)[C@H](CCCCN)NC(=O)[C@@H]2CCCN2C(=O)[C@@H](Cc2ccc(O)cc2)NC(=O)[C@H](C(C)C)NC(=O)[C@H](CCCCN)NC1=O | Gram-positive bacteria |  |  | 24 h, 7 strains |  | MIC geometric mean | 1.1 µg/mL (≈ 0.612 µM)
O=c1c(O)c(SCc2ccccc2)ccc(SCc2ccccc2)c1O | Cryptococcus neoformans | microbial growth, broth dilution |  | 13 h |  | MIC80 | 7 µM (≈ 2.68 µg/mL)
CC(C)C[C@H](NC(=O)OCc1ccccc1)C(=O)N[C@@H](C[C@@H]1CCNC1=O)C(O)S(=O)(=O)[O-].[Na+] (stereo partly shown) | Coxsackievirus A10 |  | RD | 5 µM, added 0 to 4 h post infection |  | cytopathic effect | inhibited
CC(=O)NC(CC(C)C)C(=O)NC(C=O)CCCN=C(N)N (stereo not shown) | Plasmodium vivax | parasite growth |  | 100 µM, 40 h |  | inhibition | 75.3 ± 1%
O=[N+]([O-])c1ccc(/C=N/N=C/c2ccccc2)s1 | Trypanosoma brucei gambiense | parasite growth, CellTiter-Glo | IL1922 bloodstream form | 72 h |  | IC50 | 340 ± 10 nM
c1ccc(-c2nc(-c3ccc4ccccc4c3)c[nH]2)cc1 | Schistosoma mansoni |  | mature male and female worms | 5 µM, 96 h |  | worm killing | 0%
COC(=O)c1c(C)cc(O)c(=O)c(O)c1O | herpes simplex virus 1 | viral replication |  | 5 µM |  | inhibition | inhibited
O=[N+]([O-])c1ccc(/C=N/N=C/c2ccc(Cl)cc2)o1 | Trypanosoma evansi | parasite growth, CellTiter-Glo | Tansui bloodstream form | 72 h |  | IC50 | 1780 ± 460 nM
O=c1c(O)cccc(Sc2cccc3ccccc23)c1O | Cryptococcus neoformans | microbial growth, broth dilution |  | 13 h |  | MIC80 | 21 µM (≈ 6.22 µg/mL)
CC(C)(C)c1ccc(CN2C(=O)S/C(=C\c3ccc(O)c([N+](=O)[O-])c3)C2=O)cc1 | Salmonella Typhimurium | Western blot | MCF7 | 5 µM, 10 h post infection |  | ERK phosphorylation | no effect
O=[N+]([O-])c1ccc(/C=N/N=C/c2ccc(OCc3ccccc3)cc2)o1 | Trypanosoma brucei gambiense | parasite growth, CellTiter-Glo | IL1922 bloodstream form | 72 h |  | IC50 | 460 ± 70 nM
CC(C)S(=O)(=O)c1cccc(O)c(=O)c1O | Hepatitis B virus | viral replication, inhibitor | HepDES19 |  |  | EC50 | 790 nM
CC1(C)CC[C@]2(CO)CC[C@]3(C)C(=CC[C@@H]4[C@@]5(C)CCCNC(C)(C)[C@@H]5CC[C@]43C)[C@@H]2C1 | Human alphaherpesvirus 1 | cytopathic effect | HFF, E-377 |  |  | EC90 | > 1200 nM
CN(C)CCCSC(=S)N1CCN(C(=O)/C=C/c2coc3ccccc3c2=O)CC1 | TMV | virus inactivation |  | 500 µg/mL, mean |  | inhibition | 79%
CC(C)Sc1cccc(O)c(=O)c1O | Hepatitis B virus | viral replication, inhibitor | HepDES19 |  |  | EC50 | 31000 nM
CC[C@H](C)[C@H](NC(=O)[C@H](CC(C)C)NC(=O)[C@@H](N)CS)C(=O)N[C@@H](CCC(=O)O)C(=O)N[C@@H](Cc1ccc(O)cc1)C(=O)NCC(=O)NCC(=O)N[C@@H](C)C(=O)N[C@@H](CC(=O)O)C(=O)N[C@@H](Cc1ccc(O)cc1)C(=O)N[C@@H](CCCCN)C(=O)N[C@H](C(=O)N[C@H](C(=O)N[C@@H](CC(N)=O)C(=O)N[C@@H](CC(C)C)C(=O)N[C@@H](CCCCN)C(=O)O)[C@@H](C)CC)[C@@H](C)O | infectious bursal disease virus | western blot, refers to: phospho-p65 | DT40 cells, IBDV-infected | 50 to 100 nM, 12 h | reference: IBDV-infected untreated | protein phosphorylation | decreased

SMILES | organism | test | system | setting | how to read | endpoint | result
C#CCN1CCc2c3n(c4ccccc24)C(=O)C(=C)CC3(C(=O)OC)C1 (stereo not shown) | Hepatitis B virus | viral replication, inhibitor, qPCR | HePAD38 | 5 µM |  | inhibition | ~10%
Fc1ccc2c(c1)c1nc3ccc(Br)cc3c-1cn2Cc1cn(-c2ccccc2I)nn1 | Giardia duodenalis | UHPLC-Q-TOF-MS, refers to: 19-oxo-eicosanoic acid | trophozoites | IC50, m/z 344.3, retention 11.66 min | reference: 0.25% DMSO | fold change | 3.17
O=C(CCNC(=O)c1ccsc1)Nc1cccc(Oc2ccc(Cl)cc2)c1 | Hepatitis B virus | anti-HBs immunoprecipitation qPCR | HepG2.2.15.7 | 10 µM, 48 h | reference: control | Dane particle HBV DNA | 61 ± 14%
CN(Cc1cc(C2CC2)on1)C(=O)c1cccc(-c2ccc3c(c2)CCO3)c1 | Cryptococcus neoformans |  | H99 | with: amphotericin B |  | FIC index | 2
CC(C)C[C@@H]1NC(=O)[C@H](CCCCN)NC(=O)[C@H](C(C)C)NC(=O)[C@@H]2CCCN2C(=O)[C@@H](Cc2ccc(O)cc2)NC(=O)[C@H](CC(C)C)NC(=O)[C@H](CCCCN)NC(=O)[C@H](C(C)C)NC(=O)[C@@H]2CCCN2C(=O)[C@@H](Cc2ccc(O)cc2)NC(=O)[C@H](CCCCN)NC1=O | Gram-positive bacteria |  |  | 24 h, 7 strains |  | MIC geometric mean | 7.2 µg/mL (≈ 5.41 µM)
CC[C@H](C)[C@H](NC(=O)[C@H](CCCN)NC(=O)[C@H](CC(N)=O)NC(=O)[C@H](Cc1c[nH]c2ccccc12)NC(=O)[C@H](Cc1ccccc1)NC(=O)[C@H](CCCN)NC(=O)[C@H](CCCCNC(=N)N)NC(=O)[C@H](CC(C)C)NC(=O)[C@H](Cc1c[nH]c2ccccc12)NC(=O)[C@H](CCCN)NC(=O)[C@H](CCCCNC(=N)N)NC(=O)[C@H](CC(C)C)NC(=O)CNC(C)=O)C(=O)N[C@@H](CCCN)C(=O)N[C@@H](CCCCNC(=N)N)C(N)=O | Gram-positive bacteria |  |  |  |  | geometric mean MIC | 3.13 µM
CC(=O)N[C@H](CCCCN)C(=O)N[C@H](CC(C)C)C(=O)N[C@H](CCCCN)C(=O)N[C@H](CO)C(=O)N[C@H](CC(C)C)C(=O)N[C@H](CC(C)C)C(=O)N[C@H](CCCCN)C(=O)N[C@@H](C(=O)N[C@H](CC(C)C)C(=O)N[C@H](CO)C(=O)N[C@H](CCCCN)C(=O)N[C@H](C)C(=O)N[C@H](CCCCN)C(=O)N[C@H](CCCCN)C(=O)N[C@H](CCCCN)C(=O)N[C@H](CC(C)C)C(=O)N[C@H](CC(C)C)C(=O)N[C@H](CCCCN)C(=O)N[C@@H](C(=O)N[C@H](C)C(=O)N[C@H](CC(C)C)C(=O)N[C@H](CCCCN)C(=O)N[C@H](C)C(=O)N[C@H](CC(C)C)C(=O)N[C@H](CO)C(=O)N[C@H](CCCCN)C(N)=O)[C@H](C)O)[C@H](C)O | Acinetobacter baumannii |  | 689, Mueller-Hinton broth | 24 h, 37 °C |  | MIC | 0.7 µM
O=C(Nc1ccccc1Nc1ccccc1)c1cccnc1Br | Botrytis cinerea | microbial growth |  | 50 µg/mL |  | inhibition | 35.2%
O=[N+]([O-])c1ccc(/C=N/N=C/c2ccc([N+](=O)[O-])o2)cc1 | Trypanosoma brucei gambiense | parasite growth, CellTiter-Glo | IL1922 bloodstream form | 72 h |  | IC50 | 1500 ± 280 nM
O=c1[nH]cc(C(c2cccc(C(F)(F)F)c2)c2c[nH]c(=O)[nH]c2=O)c(=O)[nH]1 | Human immunodeficiency virus 1 | viral replication, inhibitor, ELISA |  | 1 µg/mL |  | inhibition | 74%
C#CCN1CCc2c3n(c4ccccc24)C(=O)C(=C)C3(C(=O)OC)C1 (stereo not shown) | Hepatitis B virus | viral replication, inhibitor, qPCR | HePAD38 | 5 µM |  | inhibition | ~66%
C=C(C)[C@@H]1CC[C@]2(C(=O)NC(CO)Cc3ccccc3)CC[C@]3(C)[C@H](CC[C@@H]4[C@@]5(C)CCCNC(C)(C)[C@@H]5CC[C@]43C)[C@@H]12 (stereo partly shown) | Human alphaherpesvirus 1 | cytopathic effect | HFF, E-377 |  |  | EC90 | > 1200 nM
Brc1ccc(-c2c[nH]c(-c3ccccn3)n2)cc1 | Schistosoma mansoni |  | adult male worms | 100 µM |  | worm killing | 100%
Cc1ccc(S(=O)(=O)c2cccc(O)c(=O)c2O)cc1 | Hepatitis B virus | viral replication, inhibitor | HepDES19 |  |  | EC50 | 49000 nM
CC(C)C[C@@H]1NC(=O)[C@H](CCCCN)NC(=O)[C@H](C(C)C)NC(=O)[C@@H]2CCCN2C(=O)[C@@H](Cc2ccc(O)cc2)NC(=O)[C@H](CC(C)C)NC(=O)[C@H](CCCCN)NC(=O)[C@H](C(C)C)NC(=O)[C@H](CCCCN)NC(=O)[C@H](CC(C)C)NC(=O)[C@@H]2CCCN2C(=O)[C@@H](Cc2ccc(O)cc2)NC(=O)[C@H](CCCCN)NC1=O | Gram-positive bacteria |  |  | 24 h, 7 strains |  | MIC geometric mean | 1.2 µg/mL (≈ 0.764 µM)
O=[N+]([O-])c1ccc(/C=N/N=C/c2ccc([N+](=O)[O-])s2)cc1 | Trypanosoma brucei gambiense | parasite growth, CellTiter-Glo | IL1922 bloodstream form | 72 h |  | IC50 | 970 ± 190 nM
Cc1ncc([N+](=O)[O-])n1CCOCc1nnc(SCC(=O)c2ccc(O)cc2)o1 | viridans streptococci |  | DMSO | 60 µg/mL, 24 h, 37 °C |  | inhibition zone diameter | 15 to 20 mm
CC[C@H](C)[C@H](NC(=O)[C@H](CCCCNC(=N)N)NC(=O)[C@H](CC(N)=O)NC(=O)[C@H](CC(C)C)NC(=O)[C@H](Cc1ccccc1)NC(=O)[C@H](CCCCNC(=N)N)NC(=O)[C@H](CCCCNC(=N)N)NC(=O)[C@H](CC(C)C)NC(=O)[C@H](CC(C)C)NC(=O)[C@H](CCCCNC(=N)N)NC(=O)[C@H](CCCCNC(=N)N)NC(=O)[C@H](CC(C)C)NC(=O)CNC(C)=O)C(=O)N[C@@H](CCCCNC(=N)N)C(=O)N[C@@H](CCCCNC(=N)N)C(N)=O | Gram-positive bacteria |  |  |  |  | geometric mean MIC | 3.13 µM
O=[N+]([O-])c1ccc(/C=N/N=C/c2ccc(Br)cc2)o1 | Trypanosoma brucei gambiense | parasite growth, CellTiter-Glo | IL1922 bloodstream form | 72 h |  | IC50 | 810 ± 200 nM
CC1(C)S[C@@H]2[C@H](NC(=O)[C@H](NC(=O)C3=C(O)C(c4ccccc4F)NC3=O)c3ccccc3)C(=O)N2[C@H]1C(=O)O (stereo partly shown) | Proteus mirabilis | microbial growth, broth dilution | ATCC25933 |  |  | MIC | 3.1 µg/mL

For quick reference, copied from above:
SMILES | organism | test | system | setting | how to read | endpoint | result
CC[C@H](C)[C@H](NC(=O)[C@H](CCCN)NC(=O)[C@H](CC(N)=O)NC(=O)[C@H](Cc1c[nH]c2ccccc12)NC(=O)[C@H](Cc1ccccc1)NC(=O)[C@H](CCCN)NC(=O)[C@H](CCCCNC(=N)N)NC(=O)[C@H](CC(C)C)NC(=O)[C@H](Cc1c[nH]c2ccccc12)NC(=O)[C@H](CCCN)NC(=O)[C@H](CCCCNC(=N)N)NC(=O)[C@H](CC(C)C)NC(=O)CNC(C)=O)C(=O)N[C@@H](CCCN)C(=O)N[C@@H](CCCCNC(=N)N)C(N)=O | Gram-positive bacteria |  |  |  |  | geometric mean MIC | 3.13 µM
N[C@H]1C[C@@H]1c1ccc(-c2cccc(O)c2)cc1 | herpes simplex virus 1 | titration on Vero cells | HeLa | 50 µM, 24 h post-infection | reference: DMSO | viral yield reduction | ~100 fold
O=C(Nc1ccccc1Nc1ccccc1)c1cccnc1Br | Botrytis cinerea | microbial growth |  | 50 µg/mL |  | inhibition | 35.2%
